Published values collected from several papers.
A part holds a random share of what one study measured. Changes are numbered by the printed parent chain.

Sample 1
Target: Max-binding protein MNT, bHLH-zipper, MAX partner unstated (MNT, Homo sapiens, UniProt Q99583, residues 220-300)
Method: protein-binding microarray
Form: double-stranded DNA, one strand shown
Sample: in vitro
Tested at: not given
Notes: k-mer, scored over probes, only values ≥0.25
Reading: higher = stronger binding
Residues (chain): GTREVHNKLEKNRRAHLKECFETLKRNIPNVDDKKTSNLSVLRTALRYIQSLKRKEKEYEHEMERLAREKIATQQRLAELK
Strand | E-score
CAAACACG | 0.358
CCGCGTGA | 0.426
CGTGATGC | 0.316
CGCGTGTA | 0.458
GCATGCAA | 0.362
CACGCTAC | 0.392
CATGGCTC | 0.307
GCGTGTCC | 0.367
ACCCCACA | 0.287
CGCACACG | 0.393
GAACACGA | 0.302
ACAGGTGG | 0.297
TCCCACGA | 0.312
AGCGTGAT | 0.352
CGAACACG | 0.287
GGGTGGAC | 0.256
ACGGCGTG | 0.403
CACGATGG | 0.293
AACCCACG | 0.372
AGACACGA | 0.288
CATGCGTA | 0.436
CCACCACG | 0.35
CATGGGGC | 0.327
AGAGCACG | 0.376
AACCATGT | 0.261

Sample 2
Target: Fragile X messenger ribonucleoprotein 1, C-terminal low-complexity region (Fmr1, Mus musculus, UniProt P35922)
Method: RNA Bind-n-Seq
Form: RNA
Sample: in vitro
Tested at: 200 nM
Notes: whole 134-nt RNA, ends assumed
Together with: 150 mM KCl
Relative to: input library
Reading: higher = stronger binding
Constant ends, left off below: GGGAGUUCUACAGUCCGACGAUC … UGGAAUUCUCGGGUGUCAAGG
Strand | log2 enrichment
CACAGACAACACGCACCCACACAGACACAGAGGGAAGGGGUUGGGACGGGGACAGGGUGCACAGCAGGGCGGGGUAGGACCCCAGCCCCU | 1.24
UGGCCCUGGUGGCAUGCGGGGAGGAAGAGGUGGCCUCAUGGAUCGUGGUGGUCCCGGUGGAAUGUUCCGAGGUGGCCGUGGUGGAGACAG | -0.0311
CACAGACAACACGCACCCACACAGACACAGAGGGAACGGGUUGGGAUGGGGACAGGGUGCACAGCAGGGCGGGGUAGGACCCCAGCCCCU | 1.39
CCUGUGCUACACAUCGUAUGUACCGAAUCGGGGAAAAAAAGGGAAAAAAAGGAAAAAAAGGAAAGUAUUAUGUUACGCCGUUCGGAUCUG | -0.751
AGUCCUGUGCUACACAUCGUAUGUACCGAAUCGGGGUUUGGGGUGGGGUUUUUGGGGAAAGUAUUAUGUUACGCCGUUCGGAUCUGCACU | 0.863
UGGGAGGUGGAUUUUGUUUAUUUUUUUAGCUCAUUUCCAGGGGUGGGAAUUUUUUUUUAAUAUGUGUCAUGAAUAAAGUUGUCUUUGAAA | 0.664
GUCCUGUGCUACACAUCGUAUGUACCGAAUCGGGAAAAAAAGGGUUUGGGAAAAAGGGAAAGUAUUAUGUUACGCCGUUCGGAUCUGCAC | -0.603
CUCAAGUCCUGUGCUACACAUCGUAUGUACCGAAUCGGAGGAAAAAGGUUUGGAAAGUAUUAUGUUACGCCGUUCGGAUCUGCACUUCCA | -0.518
CUCAAGUCCUGUGCUACACAUCGUAUGUACCGAAUCGGUUGGGUUGGGUUGGGGAAAGUAUUAUGUUACGCCGUUCGGAUCUGCACUUCC | 0.646
ACCAUGAAAGUGGGCAUCUUUGGGAAGUGGGGCAAGGGGGGGAUAGGGAGGGGGGUAACACUUUGGGAACAGGUGGUCCCAGGUCGUUUC | 0.497
ACCAUGAAGGUGGGCAUCUUUGGGAAGUGGGGCAAGGGGGGGAUAGGGAGGGGGGUAACACUUUGGGAACAGGUGGUCCCAGGUCGUUUC | 0.847
UCAAGUCCUGUGCUACACAUCGUAUGUACCGAAUCGGGUUUGGUUUGGGUUUGGAAAGUAUUAUGUUACGCCGUUCGGAUCUGCACUUCC | -0.364
UGGGAGGUGGAUUUUGUUUAUUUUUUUAGCUCAUUUCCAGGGGUGGGAAUUUGUUUUUAAUAUGUGUCAUGAAUAAAGUUGUUUUUGAAA | 0.12
CCUCAAGUCCUGUGCUACACAUCGUAUGUACCGAAUCGGGCCGGCCGGCCGGAAAGUAUUAUGUUACGCCGUUCGGAUCUGCACUUCCAG | -0.123

Sample 3
Target: ABI1, truncated, D143A, DHFR fusion (Arabidopsis thaliana)
Method: DHFR PCA, deep sequencing
Sample: yeast
Notes: methotrexate growth selection, single substitutions
Together with: (+)-ABA 0.0091 µM
Relative to: wild-type fitted maximum
Reading: higher = stronger binding
Parent: PYL1, truncated, DHFR fusion (Arabidopsis thaliana); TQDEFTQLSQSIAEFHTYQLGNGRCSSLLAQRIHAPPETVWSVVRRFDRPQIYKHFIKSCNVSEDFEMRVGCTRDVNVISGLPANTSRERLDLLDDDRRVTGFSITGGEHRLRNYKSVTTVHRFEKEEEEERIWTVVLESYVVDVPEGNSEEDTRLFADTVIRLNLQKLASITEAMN
Substitution | relative binding score
W41T | 0.155%
R163L | -1.22%
Y18W | 19.8%
R123D | 2.74%
H16E | -1.64%
F56T | -1.5%
D153W | -1.97%
G81P | 35.7%
T17H | -3.6%
D153H | 3.67%
L138R | 4.45%
G23C | 2.12%
Q31E | -2.35%
L20T | 56.5%
G148S | 1.54%
A84F | 93.9%
V143E | -0.0326%
R90G | -2.5%
S117L | -1.54%
T120C | -7.17%
E89L | 2.97%
N61L | 23.6%
R113S | 10.6%

Sample 4
Target: CCNA2, cyclin fold, Cln2 fusion (human)
Method: yeast growth competition, sequencing
Sample: yeast
Notes: strong parent motif
Relative to: not given
Reading: higher = stronger binding
Parent: WEE1 docking peptide (human); HKTFRKLRLFDTP
Substitution | normalised enrichment score
HKTFRKLRLFDHP [T12H] | 1.76
HKTFFKLRLFDTP [R5F] | 1.59
HKTFRKLRLFDKP [T12K] | 1.6
HKTFKKLRLFDTP [R5K] | 1.4
HKTFNKLRLFDTP [R5N] | -5.95
HKTFVKLRLFDTP [R5V] | 0.573
HKTFRKLREFDTP [L9E] | 0.784
HKTFMKLRLFDTP [R5M] | 1.94
HKTFRKLRLEDTP [F10E] | 1.35
HKTFRALRLFDTP [K6A] | 1.31
HKTFAKLRLFDTP [R5A] | -0.846
HKTFRCLRLFDTP [K6C] | 1.14
HKTFRQLRLFDTP [K6Q] | 1.27
EKTFRKLRLFDTP [H1E] | 1.6
HKTFGKLRLFDTP [R5G] | 0.675
VKTFRKLRLFDTP [H1V] | 1.87
HKTFAKARLFDTP [R5A L7A] | 1.75
HYTFRKLRLFDTP [K2Y] | 1.42
HKTFRELRLFDTP [K6E] | 0.513
HKKFRKLRLFDTP [T3K] | 0.441
QKTFRKLRLFDTP [H1Q] | 0.77
HKTFRKHRLFDTP [L7H] | 0.562
HKTFRKLRMFDTP [L9M] | 1.15
HKTFRFLRLFDTP [K6F] | -0.378
HKTFRKLDLFDTP [R8D] | 1.48

Sample 5
Target: Histone acetyltransferase KAT6A, both winged helices, GST fusion (KAT6A, Homo sapiens, UniProt Q92794, residues 1-181)
Method: protein binding microarray
Form: double-stranded DNA, one strand shown
Sample: in vitro
Tested at: not given
Notes: 8-mer, flanks averaged, mean of 2 arrays, mostly near background
Relative to: not given
Reading: higher = stronger binding
Residues (chain): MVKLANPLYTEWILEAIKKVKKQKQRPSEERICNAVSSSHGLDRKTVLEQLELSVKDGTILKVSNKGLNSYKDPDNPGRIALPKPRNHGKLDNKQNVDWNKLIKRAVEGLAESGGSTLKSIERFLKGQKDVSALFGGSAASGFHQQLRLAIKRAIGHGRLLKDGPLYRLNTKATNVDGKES
Strand | E-score
AAGGGGCA | -0.176
GCGGTAGC | 0.226
CAAACCAA | -0.216
GACCAAAC | -0.0722
GACTCCTA | -0.233
CGACGCTA | 0.247
ACACTTCC | -0.036
GCCCCAGA | -0.0706
TACTACTA | 0.0645
AAATTTTA | -0.0188
AGGTTCCG | 0.203
CGTTGAGA | 0.0937
ACGTGCAT | -0.14
CCCCCAGA | -0.377
CTTCGTTC | -0.236
GATTGAAA | -0.0869
GGACGAGA | 0.018
CATTAGCA | -0.103
AATACACC | -0.0435
GGCGGAGA | 0.216
CGGTCTCA | 0.0821
CGACATGA | 0.127
AGGTACGG | 0.217
ATCAGGTC | -0.0218
AGACGGTC | 0.0501

Sample 6
Target: Sal-like protein 4, full length isoform A (SALL4, Homo sapiens, UniProt Q9UJQ4, residues 1-1053)
UniProt Q9UJQ4, sequence (whole entry, looked up): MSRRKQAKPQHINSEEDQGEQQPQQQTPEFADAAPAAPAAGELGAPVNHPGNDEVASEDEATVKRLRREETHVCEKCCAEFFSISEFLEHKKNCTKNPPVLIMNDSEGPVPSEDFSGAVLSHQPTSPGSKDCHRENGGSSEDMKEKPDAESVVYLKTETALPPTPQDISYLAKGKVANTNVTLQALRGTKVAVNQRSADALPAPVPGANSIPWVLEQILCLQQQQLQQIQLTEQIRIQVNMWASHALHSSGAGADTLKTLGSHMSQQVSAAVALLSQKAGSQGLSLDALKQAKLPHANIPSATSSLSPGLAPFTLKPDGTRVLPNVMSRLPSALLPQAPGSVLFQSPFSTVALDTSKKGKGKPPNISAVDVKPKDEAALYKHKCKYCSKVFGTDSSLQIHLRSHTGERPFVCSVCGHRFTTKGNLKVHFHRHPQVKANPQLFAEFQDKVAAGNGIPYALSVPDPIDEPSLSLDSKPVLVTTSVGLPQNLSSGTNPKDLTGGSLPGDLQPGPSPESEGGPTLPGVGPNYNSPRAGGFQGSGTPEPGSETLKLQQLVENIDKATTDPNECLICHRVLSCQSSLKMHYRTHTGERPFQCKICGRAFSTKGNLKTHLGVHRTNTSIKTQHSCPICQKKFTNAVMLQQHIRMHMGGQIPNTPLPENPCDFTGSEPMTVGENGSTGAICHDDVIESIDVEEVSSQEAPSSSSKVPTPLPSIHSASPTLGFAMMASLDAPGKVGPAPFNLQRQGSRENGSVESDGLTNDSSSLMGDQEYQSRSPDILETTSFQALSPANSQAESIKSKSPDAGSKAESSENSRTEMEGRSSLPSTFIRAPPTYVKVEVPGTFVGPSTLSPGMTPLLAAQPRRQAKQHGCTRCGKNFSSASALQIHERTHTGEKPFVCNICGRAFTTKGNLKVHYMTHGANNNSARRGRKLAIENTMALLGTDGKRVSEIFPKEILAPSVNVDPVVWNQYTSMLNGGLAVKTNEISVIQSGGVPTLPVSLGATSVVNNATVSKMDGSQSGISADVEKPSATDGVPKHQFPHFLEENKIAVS
Method: universal PBM
Form: double-stranded DNA, one strand shown
Sample: in vitro
Tested at: 600 nM
Notes: 8-mer, flanks averaged, mean of replicates
Reading: higher = stronger binding
Strand | E-score
TGGCGGAA | -0.227
AGTAGCCG | -0.245
TACCGACA | -0.0394
ATAATTGG | 0.283
AAAGCGAC | -0.103
ACGCGCTA | 0.0089
CGGTATCA | 0.0773
ATGACTGC | 0.129
CAGTGCGG | -0.352
AACATCTT | 0.101
AAACAATT | 0.265
CGAGCCAA | -0.185
ATCGCTAG | 0.0624
AATCTACG | 0.0174
CCACATCC | -0.149
AGCAAGCC | -0.235
ATGGACGA | 0.131
AATCTCGA | 0.135
CAGGCGAG | -0.244
CGCGAGCG | -0.203
GTTAGGCA | 0.0655
CCCGGTAA | -0.248
CATGCTTC | 0.0261
ATTGGAAG | 0.117
GATCGTCC | -0.164

Repeated from above (sample 3):
Substitution | relative binding score
S117L | -1.54%
R163L | -1.22%
V143E | -0.0326%
D153H | 3.67%
W41T | 0.155%
G148S | 1.54%
N61L | 23.6%
F56T | -1.5%
Y18W | 19.8%
G81P | 35.7%
